{"data": "Experimental data collected from several papers", "note": "Compare with care: the assays were run in different laboratories."}
{"Compound": "C[C@H]1O[C@@H](O[C@H]2[C@@H](O)C[C@H](O[C@H]3[C@@H](O)C[C@H](O[C@H]4CC[C@@]5(C)[C@H](CC[C@@H]6[C@@H]5C[C@@H](O)[C@]5(C)[C@@H](C7=CC(=O)OC7)CC[C@]65O)C4)O[C@@H]3C)O[C@@H]2C)C[C@H](O)[C@@H]1O", "target": "Nedd8-cullin1 interaction", "test": "neddylation, AlphaScreen", "conditions": "100 µM", "inhibition": "24.5%"}
{"Compound": "O=C(Nc1ccc(CN2CCOCC2)c(C(F)(F)F)c1)c1ccc(C#Cc2cccc3cnccc23)cn1", "target": "kinase panel (ten kinases)", "test": "enzyme activity, inhibitor", "conditions": "10 µM, added: ATP 100 µM", "inhibition": "< 30%"}
{"Compound": "COC(=O)C1=C(C)NC(C)=C(C(=O)OC(C)(C)CN(C)CCC(c2ccccc2)c2ccccc2)C1c1cccc([N+](=O)[O-])c1 (stereo not drawn)", "target": "Nedd8-cullin1 interaction", "test": "neddylation, AlphaScreen", "conditions": "100 µM", "inhibition": "26.2%"}
{"Compound": "CCCc1cc(C)[nH]c(=O)c1CNC(=O)c1cc(-c2ccc(N3CCN(C(C)C)CC3)nc2)cc2c1cnn2C(C)C", "target": "PDSP panel target", "test": "radioligand binding, PDSP panel", "conditions": "10000 nM", "inhibition": "≤ 50%"}
{"Compound": "CC[C@@H]1[C@H](F)C(=O)N[C@@H]1COc1nccc2cc(C(N)=O)c(OC)cc12", "target": "Aurora A, B and C", "test": "ATP-site probe binding, inhibitor, ActivX ATP probe profiling", "system": "THP-1 cell lysate", "conditions": "0.2 mM, ATP loop site", "inhibition": "-1%"}
{"Compound": "COc1cc(-c2cc(-c3ccc(N4CCNCC4)cc3)cnc2C)cc(OC)c1OC", "target": "human NDRG1", "test": "enzyme activity, inhibitor", "conditions": "0.1 µM", "inhibition": "1%"}
{"Compound": "COc1cc(/C=C/C(=O)N2CCN(CC(=O)N3CCCC3)CC2)cc(OC)c1OC.O=C(O)/C=C\\C(=O)O", "target": "Nedd8-cullin1 interaction", "test": "neddylation, AlphaScreen", "conditions": "100 µM", "inhibition": "26.6%"}
{"Compound": "CCN1CCN(Cc2ccc(NC(=O)c3ccc(C)c(/C=C/c4cnc5[nH]ccc5c4OC)c3)cc2C(F)(F)F)CC1", "target": "ABL and ARG human", "test": "KiNativ", "system": "A-375 live cells", "conditions": "0.5 µM", "inhibition": "> 98%"}
{"Compound": "C#Cc1cc(-c2cc(Nc3nc(N[C@@H](C)c4ccc(F)cn4)ncc3Cl)n[nH]2)ccc1C=O", "target": "EGFR D770_N771insNPG, human", "test": "enzyme activity", "conditions": "0.2 µM", "inhibition": "4.08%"}
